# Published values pooled from the literature.
# Every numbered part comes from another study and shows a few of its results, in no order. Positions count from the first letter of the parent shown.

# Sample 1
# Target: Hepatocyte nuclear factor 3-alpha (Foxa1, Mus musculus, UniProt P35582, residues 1-468, full length assumed)
# Method: EMSA with sequencing
# Form: double-stranded DNA, one strand shown
# Matrix: in vitro
# Tested at: 10 and 20 nM
# Setting: whole designed probe, mean of two concentrations, ends assumed
# Baseline: negative control set to 0
# Reading: higher = stronger binding
# Shared flanks, not repeated: GTGAGCGGTGCCCATTGATGGGGAAC … TTTCACTGGGATCGTGGGGAC
# Residues (chain): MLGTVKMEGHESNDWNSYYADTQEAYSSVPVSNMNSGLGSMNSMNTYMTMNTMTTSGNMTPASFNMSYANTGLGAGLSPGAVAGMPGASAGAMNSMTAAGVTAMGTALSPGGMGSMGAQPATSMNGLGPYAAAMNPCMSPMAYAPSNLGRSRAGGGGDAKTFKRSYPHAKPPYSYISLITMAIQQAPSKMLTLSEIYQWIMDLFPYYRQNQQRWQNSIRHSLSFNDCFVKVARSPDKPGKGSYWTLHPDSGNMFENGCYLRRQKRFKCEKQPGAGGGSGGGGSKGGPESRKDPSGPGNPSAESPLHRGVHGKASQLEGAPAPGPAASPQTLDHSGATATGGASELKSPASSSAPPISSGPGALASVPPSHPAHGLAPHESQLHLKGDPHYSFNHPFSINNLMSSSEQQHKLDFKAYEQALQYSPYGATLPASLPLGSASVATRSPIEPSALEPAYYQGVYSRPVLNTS
Sequence,normalised bound fraction [ratio]
ATTCCAGGCAAAGCCAAATGACGATGCACCAGTGAGTCACCAGTGAGATTGCATTTAAAATCTAGCAGCCTCAGAGCCAAGACCAGCCTTGTGTAATCTGAGTTCAGGGAGGAGGGAAGATAGTGGAGTGAGACGTGCCGAGGCCAGCCGGCCTCTGGGCTTGGGGTGCGCTGACCTCTGGGGAGCCGAGTGC,-0.0593
ATGAAGGGCTGCCAGTGTAATTTGAACCTCAAATAAACAACAGATAAAACTGTAGTATAATTGCACAACAGTATGTCCCATATACGATCTTTTTGTTTGCCTAATCTGGCAAAGATATTGACTTAACACACACTAATCTGTTGACAGGTAGGTGAAATATTTGAACTTCTACGTTGCTTCTCTAATCCTGTCC,0.394
CACTCATAGTCTTGCTATCCTTCATATACAGAGATGACCCTCCCAAGCCTAAAATCAACAGGGGGAGGCATAGAGCTGTCCTTCTGGCTCTAATGTTTGCTTTACCATCATCTTAGTCCAGCATTCCACGCCCATGTGAGAGCCAGTGTGAAGTGAGCAGAATATGGCATAAGTATGGAGTCATACATCCTTA,0.361
GTCCTTTTTAACACGCAGCGGTTGTGGGGACAAGGTTTCCGAGGAGGCGGGAGCGAGCGACGGCCCCCGCCTCCCACACGCCCTCTGCTTTGGTAAACAAGGAGACTCCCGCCCGCAGGCTGTAAATGAGGCACGAGCTTGGGGGCAGCGCCAGGGCGCCTGGCGTCACTGTTCAAAAAGGCCTCTTATTGGT,0.221
TTTGTGCTCCTTGCTCCTACTCCCAAAGCCTCAAATCTGCTATGTGGCCTTTCCCAGTTGGCTTCTTTTATTTTCTTAACTTCTCCCTTGTAATGTAAACATGGGAAAGAGAAAGTGGTAGAAGAACAAAGAATAAGCATACAAAGTAGCTCCACTCCTTCTGCATAGAGCTTTAATAAGGAAATGGTGCCAC,0.434
AGAACATATAAATCAGCACAAACAATGTAATATCAGATGGCTTTCAAATAAGAGATTAGAAAATGTTGTCCAAAGATATAAATAATGTGAAAAGTAAATAAAAATGCATTTATTTCATTAAGATAGATGACATAACTTTTTTAATGTCAAGGAATTTAATAATCACCTCCCTAAAACTTAATGGGTCCTCCCC,0.461

# Sample 2
# Target: Histone acetyltransferase KAT6A, both winged helices, GST fusion (KAT6A, Homo sapiens, UniProt Q92794, residues 1-181)
# Method: protein binding microarray
# Form: double-stranded DNA, one strand shown
# Matrix: in vitro
# Tested at: not given
# Setting: 8-mer, flanks averaged, mean of 2 arrays, mostly near background
# Baseline: not given
# Reading: higher = stronger binding
# Residues (chain): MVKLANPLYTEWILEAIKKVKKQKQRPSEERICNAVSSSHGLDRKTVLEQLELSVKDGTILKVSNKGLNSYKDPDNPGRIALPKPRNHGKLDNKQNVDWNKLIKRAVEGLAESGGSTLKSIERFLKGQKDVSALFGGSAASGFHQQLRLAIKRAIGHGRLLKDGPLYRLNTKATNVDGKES
Sequence,E-score
CCACGCGG,0.232
CATATTCC,-0.0388
GCCGAAGC,0.195
AAAGTACT,-0.0466
ATATAACA,0.0348
ACGTACTA,-0.23
GGTCAACA,-0.203
AGGAGTCA,-0.247
ACTAGTTG,-0.244
ATGTGCAA,-0.149
GCTTTAAA,-0.127
CGCATAGA,0.0481
AAATCGCT,0.051
CCCGGTCC,0.175
GAATGGGA,-0.288
ACCGTACC,0.218

# Sample 3
# Target: CCNF, cyclin fold, Cln2 fusion (human)
# Method: yeast growth competition, sequencing
# Matrix: yeast
# Setting: strong parent motif
# Baseline: not given
# Reading: higher = stronger binding
# Starting sequence: CDKN1B docking peptide (human); PSACRNLFGPVDH
Substitution,normalised enrichment score
D12N,6.65
S2Q,7.06
L7C,-0.606
P10N,6.67
F8E,0.0883
V11N,6.52
V11G,6.62
C4D,-0.304
L7T,-0.144
H13R,7.79
P1G,5.89
A3W,4.57
R5I,-0.233
F8Q,0.111
R5A L7A,-0.215
H13E,6.67
N6Y,3.1

# Other studies, line by line
Molecule,target,test,test system,conditions,scale,endpoint,result
"PhoQ, residues 284 288 289 292 302 303 AGGCYF","PhoP, residues 12 14 15 18 19 LQHIR (Escherichia coli, UniProt P23836)","Sort-seq, refers to: YFP reporter",E. coli,"PhoQ-PhoP variant library, added: 10 µM Mg2+","baseline: high Mg2+ state, higher = stronger signaling",fold induction,2.59

# Excerpt of the above (sample 3):
Substitution,normalised enrichment score
V11N,6.52
V11G,6.62
C4D,-0.304
L7T,-0.144
H13R,7.79
